Experimental data collected from several papers.
Protocols differ between the studies behind these lines. “And” joins repeats or separate records; there may be more than shown. Numbers after ± are the reported error.
Mc1r: Melanocyte-stimulating hormone receptor (Mc1r, Mus musculus, UniProt Q01727)
UniProt Q01727, sequence (whole entry, looked up): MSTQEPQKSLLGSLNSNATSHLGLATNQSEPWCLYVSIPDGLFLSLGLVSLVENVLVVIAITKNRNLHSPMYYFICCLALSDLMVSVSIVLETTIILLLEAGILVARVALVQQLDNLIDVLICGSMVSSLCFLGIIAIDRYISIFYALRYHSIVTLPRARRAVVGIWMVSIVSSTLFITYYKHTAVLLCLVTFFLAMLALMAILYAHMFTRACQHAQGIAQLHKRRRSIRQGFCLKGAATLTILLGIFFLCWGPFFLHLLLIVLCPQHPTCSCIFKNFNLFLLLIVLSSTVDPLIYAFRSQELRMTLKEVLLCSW
Ribonucleoside-diphosphate reductase large subunit: Ribonucleoside-diphosphate reductase large subunit (Homo sapiens, UniProt P23921)
UniProt P23921, sequence (whole entry, looked up): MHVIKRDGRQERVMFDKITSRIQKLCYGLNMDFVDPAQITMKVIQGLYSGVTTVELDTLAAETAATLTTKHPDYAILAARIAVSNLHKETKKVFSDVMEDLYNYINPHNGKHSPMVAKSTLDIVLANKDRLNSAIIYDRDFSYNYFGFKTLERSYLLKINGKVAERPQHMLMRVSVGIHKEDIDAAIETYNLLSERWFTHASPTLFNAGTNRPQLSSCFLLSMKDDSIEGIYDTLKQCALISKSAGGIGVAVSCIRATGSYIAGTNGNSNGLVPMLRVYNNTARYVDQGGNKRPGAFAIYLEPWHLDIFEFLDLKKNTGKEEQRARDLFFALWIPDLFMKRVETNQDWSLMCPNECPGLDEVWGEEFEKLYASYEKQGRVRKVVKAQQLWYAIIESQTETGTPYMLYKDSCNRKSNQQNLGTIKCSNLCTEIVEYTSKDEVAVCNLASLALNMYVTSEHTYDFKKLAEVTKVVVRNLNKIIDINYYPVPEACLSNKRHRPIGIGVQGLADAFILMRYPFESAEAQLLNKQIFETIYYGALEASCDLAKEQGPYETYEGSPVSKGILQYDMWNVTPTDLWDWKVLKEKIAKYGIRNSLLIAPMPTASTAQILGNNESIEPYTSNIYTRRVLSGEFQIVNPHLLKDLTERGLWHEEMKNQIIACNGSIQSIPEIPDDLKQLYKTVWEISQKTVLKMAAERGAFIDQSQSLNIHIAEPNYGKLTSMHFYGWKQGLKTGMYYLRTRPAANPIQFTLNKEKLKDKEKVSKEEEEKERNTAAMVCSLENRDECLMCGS
DRD2: D(2) dopamine receptor (DRD2, Homo sapiens, UniProt P14416)
UniProt P14416, sequence (whole entry, looked up): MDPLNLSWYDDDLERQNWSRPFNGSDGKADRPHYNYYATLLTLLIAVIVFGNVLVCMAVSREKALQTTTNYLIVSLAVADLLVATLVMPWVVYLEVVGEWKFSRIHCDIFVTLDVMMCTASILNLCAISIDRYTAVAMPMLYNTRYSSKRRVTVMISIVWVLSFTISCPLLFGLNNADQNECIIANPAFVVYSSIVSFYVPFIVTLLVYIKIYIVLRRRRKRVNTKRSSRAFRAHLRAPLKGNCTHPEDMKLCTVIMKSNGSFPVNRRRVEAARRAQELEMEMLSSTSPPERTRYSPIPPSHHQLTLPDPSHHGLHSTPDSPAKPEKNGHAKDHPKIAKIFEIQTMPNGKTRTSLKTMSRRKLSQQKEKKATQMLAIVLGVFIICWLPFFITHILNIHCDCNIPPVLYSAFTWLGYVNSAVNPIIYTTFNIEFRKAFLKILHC
P2Y purinoceptor 6: P2Y purinoceptor 6 (Rattus norvegicus, UniProt Q63371)
UniProt Q63371, sequence (whole entry, looked up): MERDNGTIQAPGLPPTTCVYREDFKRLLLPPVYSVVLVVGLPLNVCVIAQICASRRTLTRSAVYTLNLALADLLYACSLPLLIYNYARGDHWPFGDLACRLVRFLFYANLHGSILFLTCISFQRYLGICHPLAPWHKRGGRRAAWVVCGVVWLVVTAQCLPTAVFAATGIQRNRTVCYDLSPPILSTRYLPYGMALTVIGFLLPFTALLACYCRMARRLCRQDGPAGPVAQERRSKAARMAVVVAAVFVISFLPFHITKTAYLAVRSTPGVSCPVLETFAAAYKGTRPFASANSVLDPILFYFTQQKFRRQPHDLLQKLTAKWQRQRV
Kcnh1: Kcnh1 (Mus musculus, UniProt Q60603)
UniProt Q60603, sequence (whole entry, looked up): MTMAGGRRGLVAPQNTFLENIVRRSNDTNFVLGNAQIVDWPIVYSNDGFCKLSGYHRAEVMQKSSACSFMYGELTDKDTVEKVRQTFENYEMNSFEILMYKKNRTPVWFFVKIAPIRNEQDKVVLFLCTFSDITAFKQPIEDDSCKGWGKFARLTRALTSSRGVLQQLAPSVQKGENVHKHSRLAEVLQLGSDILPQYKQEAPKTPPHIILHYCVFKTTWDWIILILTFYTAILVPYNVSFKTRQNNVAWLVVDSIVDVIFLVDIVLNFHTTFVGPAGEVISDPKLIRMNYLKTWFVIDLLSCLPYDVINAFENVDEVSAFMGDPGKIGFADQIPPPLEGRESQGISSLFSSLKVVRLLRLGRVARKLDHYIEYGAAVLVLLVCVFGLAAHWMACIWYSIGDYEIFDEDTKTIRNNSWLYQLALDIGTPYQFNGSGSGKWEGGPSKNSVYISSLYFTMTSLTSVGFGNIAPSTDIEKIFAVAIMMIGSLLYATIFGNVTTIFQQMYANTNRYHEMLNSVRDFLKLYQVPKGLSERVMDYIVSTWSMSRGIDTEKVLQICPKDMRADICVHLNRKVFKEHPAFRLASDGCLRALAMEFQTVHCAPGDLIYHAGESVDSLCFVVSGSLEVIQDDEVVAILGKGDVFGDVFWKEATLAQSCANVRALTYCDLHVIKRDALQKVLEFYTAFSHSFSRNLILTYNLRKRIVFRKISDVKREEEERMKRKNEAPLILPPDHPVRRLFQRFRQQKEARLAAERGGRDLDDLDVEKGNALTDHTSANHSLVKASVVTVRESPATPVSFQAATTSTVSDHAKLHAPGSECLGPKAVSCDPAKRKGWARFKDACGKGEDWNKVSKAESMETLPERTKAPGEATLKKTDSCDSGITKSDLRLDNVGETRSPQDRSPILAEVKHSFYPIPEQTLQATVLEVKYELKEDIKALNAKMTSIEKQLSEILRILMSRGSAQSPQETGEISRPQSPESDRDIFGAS
Ptger2: Prostaglandin E2 receptor EP2 subtype (Ptger2, Rattus norvegicus, UniProt Q62928)
UniProt Q62928, sequence (whole entry, looked up): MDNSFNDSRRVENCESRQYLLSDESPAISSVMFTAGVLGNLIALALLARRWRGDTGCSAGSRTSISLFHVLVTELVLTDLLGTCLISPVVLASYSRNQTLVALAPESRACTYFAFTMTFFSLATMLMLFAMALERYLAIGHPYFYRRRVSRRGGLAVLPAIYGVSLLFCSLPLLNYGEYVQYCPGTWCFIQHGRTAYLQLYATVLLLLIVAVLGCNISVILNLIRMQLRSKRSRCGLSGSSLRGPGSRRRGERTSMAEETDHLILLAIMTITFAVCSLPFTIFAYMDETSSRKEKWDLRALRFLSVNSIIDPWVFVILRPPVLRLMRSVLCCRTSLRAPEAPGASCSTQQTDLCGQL
UniProt O35433, sequence (whole entry, unmodified, looked up): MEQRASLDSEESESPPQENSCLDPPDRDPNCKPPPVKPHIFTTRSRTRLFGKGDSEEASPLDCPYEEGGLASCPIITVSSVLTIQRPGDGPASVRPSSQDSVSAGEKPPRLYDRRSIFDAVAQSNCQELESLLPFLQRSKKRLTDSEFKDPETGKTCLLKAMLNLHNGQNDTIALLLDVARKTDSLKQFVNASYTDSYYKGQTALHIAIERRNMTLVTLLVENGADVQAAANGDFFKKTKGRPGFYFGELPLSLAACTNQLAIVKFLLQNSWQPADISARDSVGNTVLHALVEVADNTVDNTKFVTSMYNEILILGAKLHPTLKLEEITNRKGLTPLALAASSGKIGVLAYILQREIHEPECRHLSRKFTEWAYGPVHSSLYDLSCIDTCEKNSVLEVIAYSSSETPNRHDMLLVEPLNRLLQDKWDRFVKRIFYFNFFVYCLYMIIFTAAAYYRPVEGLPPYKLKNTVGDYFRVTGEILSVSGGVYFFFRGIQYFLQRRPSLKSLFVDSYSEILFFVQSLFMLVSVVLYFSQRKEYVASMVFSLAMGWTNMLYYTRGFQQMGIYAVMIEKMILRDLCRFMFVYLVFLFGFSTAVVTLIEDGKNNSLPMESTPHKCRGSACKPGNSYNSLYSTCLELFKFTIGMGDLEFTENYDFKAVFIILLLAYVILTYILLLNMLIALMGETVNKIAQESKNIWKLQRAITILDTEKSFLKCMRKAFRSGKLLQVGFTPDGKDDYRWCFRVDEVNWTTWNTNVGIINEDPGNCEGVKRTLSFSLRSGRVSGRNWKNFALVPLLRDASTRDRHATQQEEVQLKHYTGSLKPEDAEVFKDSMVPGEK
UniProt Q99572, sequence (whole entry, unmodified, looked up): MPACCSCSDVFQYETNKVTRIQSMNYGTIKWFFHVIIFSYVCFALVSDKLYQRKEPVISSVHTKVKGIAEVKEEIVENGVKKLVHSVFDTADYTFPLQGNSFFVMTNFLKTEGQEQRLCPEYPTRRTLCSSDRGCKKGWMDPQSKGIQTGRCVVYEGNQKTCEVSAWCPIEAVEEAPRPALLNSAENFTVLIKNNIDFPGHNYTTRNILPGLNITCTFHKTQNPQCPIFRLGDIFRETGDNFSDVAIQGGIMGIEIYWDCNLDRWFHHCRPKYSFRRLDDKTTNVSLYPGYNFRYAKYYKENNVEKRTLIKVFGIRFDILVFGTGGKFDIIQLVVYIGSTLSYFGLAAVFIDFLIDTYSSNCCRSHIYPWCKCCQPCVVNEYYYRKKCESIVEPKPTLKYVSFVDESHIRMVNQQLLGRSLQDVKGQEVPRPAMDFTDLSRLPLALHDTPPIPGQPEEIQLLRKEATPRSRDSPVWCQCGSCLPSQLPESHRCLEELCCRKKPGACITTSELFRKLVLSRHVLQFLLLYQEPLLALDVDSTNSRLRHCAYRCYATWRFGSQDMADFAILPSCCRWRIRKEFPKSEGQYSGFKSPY
UniProt Q6DWJ6, sequence (whole entry, looked up): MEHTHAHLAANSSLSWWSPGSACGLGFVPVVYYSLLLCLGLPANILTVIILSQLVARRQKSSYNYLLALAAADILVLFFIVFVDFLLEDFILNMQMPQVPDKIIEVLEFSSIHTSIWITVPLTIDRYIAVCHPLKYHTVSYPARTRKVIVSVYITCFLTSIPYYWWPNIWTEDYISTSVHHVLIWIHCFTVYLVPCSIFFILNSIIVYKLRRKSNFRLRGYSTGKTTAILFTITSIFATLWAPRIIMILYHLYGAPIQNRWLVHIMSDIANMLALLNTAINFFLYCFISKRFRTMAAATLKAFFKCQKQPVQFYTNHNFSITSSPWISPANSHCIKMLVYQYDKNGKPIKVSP

Molecule | target | assay | system | setting | how to read | EC50
CCCC[C@H](NC(=O)[C@H](CO)NC(=O)[C@H](Cc1ccc(O)cc1)NC(=O)[C@H](CO)NC(C)=O)C(=O)N[C@@H](CCC(=O)O)C(=O)N[C@@H](Cc1c[nH]cn1)C(=O)N[C@H](Cc1ccccc1)C(=O)N[C@@H](CCCNC(=N)N)C(=O)N[C@@H](Cc1c[nH]c2ccccc12)C(=O)NCC(=O)N[C@@H](CCCCN)C(=O)N[C@@H](C)C(=O)N[C@H](C(N)=O)C(C)C | Mc1r | – | – | – | – | 0.096 ± 0.034 nM
Nc1nc(Cl)nc2c1ncn2[C@H]1C[C@H](O)[C@@H](COP(=O)(O)OP(=O)(O)OP(=O)(O)O)O1 | Ribonucleoside-diphosphate reductase large subunit | – | – | – | – | 500 ± 100 nM
BzATP | P2X purinoceptor 7 (P2rx7, Rattus norvegicus, UniProt Q64663) | ion current, agonist, two-electrode voltage clamp | Xenopus laevis oocytes | – | – | 1200 ± 200 nM
Cc1nc2cc(OCCCCN3CCN(c4cccc(Cl)c4Cl)CC3)ccc2s1 | DRD2 | cAMP, agonist, luciferase | – | – | – | 15 nM
CCCC[C@H](NC(=O)[C@H](CO)NC(=O)[C@H](Cc1ccc(O)cc1)NC(=O)[C@H](CO)NC(C)=O)C(=O)N[C@@H](CCC(=O)O)C(=O)N[C@@H](Cc1c[nH]cn1)C(=O)N[C@@H](C)C(=O)N[C@@H](CCCNC(=N)N)C(=O)N[C@@H](Cc1c[nH]c2ccccc12)C(=O)NCC(=O)N[C@@H](CCCCN)C(=O)N1CCC[C@H]1C(=O)N[C@H](C(N)=O)C(C)C | Mc1r | – | – | – | – | 54 ± 21 nM
BP(=O)(OC[C@H]1O[C@@H](n2cnc3c(N)ncnc32)[C@H](O)[C@@H]1O)OP(=O)(O)OP(=O)(O)OP(=O)(O)OC[C@H]1O[C@@H](n2cnc3c(N)ncnc32)[C@H](O)[C@@H]1O (stereo partly shown) | P2Y purinoceptor 6 | intracellular calcium rise, agonist | 1321-N1 transfected with rat P2Y6 | 37 °C | – | > 100000 nM
CCOC(=O)NC(=O)C(c1ccccc1)c1ccccc1 | Grm1 (Rattus norvegicus, UniProt P23385) | – | – | – | – | 248 ± 50.6 nM
CCCC[C@H](NC(=O)[C@H](CO)NC(=O)[C@H](Cc1ccc(O)cc1)NC(=O)[C@H](CO)NC(C)=O)C(=O)N[C@@H](CCC(=O)O)C(=O)N[C@@H](Cc1c[nH]cn1)C(=O)N[C@H](Cc1ccccc1)C(=O)N[C@@H](CCCNC(=N)N)C(=O)N[C@@H](Cc1c[nH]c2ccccc12)C(=O)N[C@@H](C)C(=O)N[C@@H](CCCCN)C(=O)N1CCC[C@H]1C(=O)N[C@H](C(N)=O)C(C)C | Mc1r | – | – | – | – | 0.037 ± 0.012 nM
O=c1cc(-c2ccc(O)c(O)c2)oc2cc(O)cc(O)c12 | Kcnh1 | deactivation time constant, inside-out patch clamp | Xenopus oocytes | – | – | 8700 ± 800 nM
CCCCCCCC(=O)OC[C@H](COP(=O)(O)O[C@@H]1[C@H](O)[C@H](O)[C@@H](OP(=O)(O)O)[C@H](OP(=O)(O)O)[C@H]1O)OC(=O)CCCCCCC | Trpv1 (Rattus norvegicus, UniProt O35433, R721A) | agonist, inside-out patch clamp | plasma membrane inner leaflet | – | – | ~0.04 mol %
CCCCCC(O)C=CC1CCC(=O)N1CCCCCCC(=O)O (stereo not shown) | Ptger2 | reporter gene, agonist | – | – | – | 2410 nM
N=C(NCCCCCCCCCCNC(N)=O)NCCCc1c[nH]cn1 | HRH4 (Homo sapiens, UniProt Q9H3N8) | GTPγS binding, agonist | – | cell membranes | – | 36300 nM
CCCCC[C@H](O)/C=C/[C@H]1CC(F)(F)C(=O)N1CCCCCCC(=O)O | Ptger2 | cAMP, agonist | – | – | – | > 10000 nM
O=C(Nc1ccccn1)C12CC1/C(=N\O)c1ccccc1O2 (single isomer, unassigned; (-)) | GRM4 (Homo sapiens, UniProt Q14833) | calcium mobilisation, positive allosteric modulator | CHO hmGluR4/Gqi5 | added: glutamate EC20 | – | 380 nM
Nc1cc(-c2nc3c(c(NCc4ccccc4)n2)CC(N)CC3)ccn1 (stereo not shown) | BAM complex (Escherichia coli) | OmpT folding, inhibitor | proteoliposomes | added: OmpT and SurA | – | 39700 nM
CCCCC[C@H](O)/C=C/[C@H]1CCC(=O)[C@@H]1CCCCCCC(=O)O | Ptger2 | cAMP, agonist | – | – | – | 617 nM
CC(C)c1nc2cc(OCCCCN3CCC(c4cccc(Cl)c4Cl)CC3)ccc2s1 | DRD2 | cAMP, agonist, luciferase | – | – | – | 72 nM
CCC#CC[C@H](C)[C@H](O)/C=C/[C@H]1CC(F)(F)C(=O)N1CCCCCCC(=O)O | Ptger2 | cAMP, agonist | – | – | – | > 10000 nM
Cc1nc2ccc(OCCCCN3CCN(c4cccc(Cl)c4Cl)CC3)cc2s1 | DRD2 | cAMP, agonist, luciferase | – | – | – | 29 nM
CCC1=C(O)c2c(oc(-c3csc4ccc(O)cc34)cc2=O)C(CC)(CC)C1=O | Tubulin alpha-1B chain/TUBB2B (Bos taurus, UniProt P81947+Q6B856) | – | – | – | – | 7500 nM

Molecule | target | assay | system | setting | how to read | EC50
Nc1nc(Cl)nc2c1ncn2[C@H]1C[C@H](O)[C@@H](COP(=O)(O)OP(=O)(O)O)O1 | Ribonucleoside-diphosphate reductase large subunit | – | – | – | – | 1700 ± 500 nM
CN(C)CCC(=O)Nc1ccc(NC(=O)c2cccc(NC(=O)Nc3cccc(C(=O)Nc4ccc(NC(=O)CCN(C)C)cc4)c3)c2)cc1 | telomerase | inhibitor, TRAP-LIG | – | – | inactive up to solubility limit | > 50000 nM
CSCC[C@H](NC(=O)[C@H](CCCN=C(N)N)NC(=O)[C@H](Cc1ccc(O)cc1)NC(=O)[C@@H]1CCCN1C(=O)CNC(=O)[C@H](CCC(=O)O)NC(=O)[C@H](CC(=O)O)NC(=O)[C@H](CCCCN)NC(=O)[C@H](CCCCN)NC(=O)[C@H](CCC(=O)O)NC(=O)[C@H](C)N)C(=O)N[C@@H](CCC(=O)O)C(=O)N[C@@H](Cc1c[nH]cn1)C(=O)N[C@@H](Cc1ccccc1)C(=O)N[C@@H](CCCN=C(N)N)C(=O)N[C@@H](Cc1c[nH]c2ccccc12)C(=O)NCC(=O)N[C@@H](CO)C(=O)N1CCC[C@H]1C(=O)N1CCC[C@H]1C(=O)N[C@@H](CCCCN)C(=O)N[C@@H](CC(=O)O)C(=O)O | GPR139 (Homo sapiens, UniProt Q6DWJ6) | calcium signal, agonist, fluorescence | – | – | – | 6300 nM
CC[C@@H]1NC(=O)[C@H](Cc2ccccc2)NC(=O)[C@H](Cc2ccccc2)NC(=O)[C@H](CCCNC(=N)N)NC(=O)[C@@H]2CCCN2C(=O)[C@H]2CCCN2C(=O)[C@H](Cc2ccccc2)NC(=O)[C@H](C)NC1=O | Melanocortin receptor 3 (Mus musculus, UniProt P33033) | – | – | – | – | > 100000 nM
Cc1nc2ccc(OCCCCN3CCC(c4cccc(Cl)c4Cl)CC3)cc2s1 | DRD2 | cAMP, agonist, luciferase | – | – | – | 88 nM
CCCCC1CN2C(=N1)C(N)=Nc1ccccc12 (stereo not shown) | TLR8 (Homo sapiens, UniProt Q9NR97) | reporter gene, agonist | – | – | – | 3050 nM
O=C(NCCCOCCOCCOCCCNC(=S)Nc1ccc2c(c1)C(=O)OC21c2ccc(O)cc2Oc2cc(O)ccc21)c1ccc(-c2csc(N3N=C(c4ccccc4)C(=NNc4nccs4)C3=O)n2)cc1 | BAX (Homo sapiens, UniProt Q07812) | binding, direct fluorescence polarization | – | target protein titrated | – | 144 nM
CSCC[C@H](NC(=O)[C@H](CO)NC(=O)[C@H](Cc1ccc(O)cc1)NC(=O)[C@H](C)NC(C)=O)C(=O)N[C@@H](CCC(=O)O)C(=O)N[C@@H](Cc1c[nH]cn1)C(=O)N[C@@H](Cc1ccccc1)C(=O)N[C@@H](CCCNC(=N)N)C(=O)N[C@@H](Cc1c[nH]c2ccccc12)C(=O)NCC(=O)N[C@@H](CCCCN)C(=O)N1CCC[C@H]1C(=O)N[C@H](C(N)=O)C(C)C | Mc1r | – | – | – | – | 165 ± 30 nM
O=c1c(O)c(-c2ccc(O)c(O)c2)oc2cc(O)ccc12 | Kcnh1 | deactivation time constant, inside-out patch clamp | Xenopus oocytes | – | – | 6600 ± 3700 nM
CCCC[C@H](NC(=O)[C@H](CO)NC(=O)[C@H](C)NC(=O)[C@H](CO)NC(C)=O)C(=O)N[C@@H](CCC(=O)O)C(=O)N[C@@H](Cc1c[nH]cn1)C(=O)N[C@H](Cc1ccccc1)C(=O)N[C@@H](CCCNC(=N)N)C(=O)N[C@@H](Cc1c[nH]c2ccccc12)C(=O)NCC(=O)N[C@@H](CCCCN)C(=O)N1CCC[C@H]1C(=O)N[C@H](C(N)=O)C(C)C | Mc1r | – | – | – | – | 0.028 ± 0.006 nM
CCCCCCCC(=O)OC[C@H](COP(=O)(O)O[C@H]1[C@H](O)[C@@H](O)[C@H](OP(=O)(O)O)[C@@H](O)[C@H]1O)OC(=O)CCCCCCC | Trpv1 (Rattus norvegicus, UniProt O35433) | agonist, inside-out patch clamp | plasma membrane inner leaflet | – | – | ~1 mol %
BzATP | P2X purinoceptor 7 (P2RX7, Homo sapiens, UniProt Q99572) | calcium influx, agonist, Fura-2 | 1321N1 expressing human P2X7 | – | – | 20400 nM
Cc1ccc2cccc(N3CCN(CCCCOc4ccc5sc(C(C)C)nc5c4)CC3)c2n1 | DRD2 | cAMP, agonist, luciferase | – | – | – | 8.3 nM and < 10 nM
CCCC[C@H](NC(=O)[C@H](C)NC(=O)[C@H](Cc1ccc(O)cc1)NC(=O)[C@H](CO)NC(C)=O)C(=O)N[C@@H](CCC(=O)O)C(=O)N[C@@H](Cc1c[nH]cn1)C(=O)N[C@H](Cc1ccccc1)C(=O)N[C@@H](CCCNC(=N)N)C(=O)N[C@@H](Cc1c[nH]c2ccccc12)C(=O)NCC(=O)N[C@@H](CCCCN)C(=O)N1CCC[C@H]1C(=O)N[C@H](C(N)=O)C(C)C | Mc1r | – | – | – | – | 0.024 ± 0.004 nM
COc1ccccc1N1CCN(CCCCOc2ccc3sc(C)nc3c2)CC1 | DRD2 | cAMP, agonist, luciferase | – | – | – | 68 nM
6-bromoindirubin-3-oxime | PGC-1α/ERRα (human) | reporter gene, agonist, luciferase reporter | – | – | – | 1190 nM
CSCC[C@H](NC(=O)[C@H](CO)NC(=O)[C@H](Cc1ccc(O)cc1)NC(=O)[C@H](CO)NC(C)=O)C(=O)N[C@@H](CCC(=O)O)C(=O)N[C@@H](Cc1c[nH]cn1)C(=O)N[C@@H](C)C(=O)N[C@@H](CCCNC(=N)N)C(=O)N[C@@H](Cc1c[nH]c2ccccc12)C(=O)NCC(=O)N[C@@H](CCCCN)C(=O)N1CCC[C@H]1C(=O)N[C@H](C(N)=O)C(C)C | Mc1r | – | – | – | – | 6400 ± 2220 nM
BP(=O)(OC[C@H]1O[C@@H](n2cnc3c(N)ncnc32)[C@H](O)[C@@H]1O)OP(=O)(O)OP(=O)(O)OC[C@H]1O[C@@H](n2cnc3c(N)ncnc32)[C@H](O)[C@@H]1O (stereo partly shown) | P2Y purinoceptor 6 | intracellular calcium rise, agonist | 1321-N1 transfected with rat P2Y6 | 37 °C | – | > 100000 nM
Cc1nc2cc(OCCCCN3CCN(c4cccc5c4OCCN5)CC3)ccc2s1 | DRD2 | cAMP, agonist, luciferase | – | – | – | 5.2 nM
CSCC[C@H](NC(=O)[C@H](CO)NC(=O)[C@H](Cc1ccc(O)cc1)NC(=O)[C@H](CO)NC(C)=O)C(=O)N[C@@H](CCC(=O)O)C(=O)N[C@@H](Cc1c[nH]cn1)C(=O)N[C@@H](Cc1ccccc1)C(=O)N[C@@H](C)C(=O)N[C@@H](Cc1c[nH]c2ccccc12)C(=O)NCC(=O)N[C@@H](CCCCN)C(=O)N1CCC[C@H]1C(=O)N[C@H](C(N)=O)C(C)C | Mc1r | – | – | – | – | 6240 ± 3740 nM
